Measurements of several laboratories.
Each line is one published result; not all experiments were run side by side. Several values in a cell are separate wells, animals, samples, runs or records. ± gives the spread as reported.
CYP2C19: Cytochrome P450 2C19 (CYP2C19, Homo sapiens, UniProt P33261)
Chain of UniProt P33261 (whole entry, looked up): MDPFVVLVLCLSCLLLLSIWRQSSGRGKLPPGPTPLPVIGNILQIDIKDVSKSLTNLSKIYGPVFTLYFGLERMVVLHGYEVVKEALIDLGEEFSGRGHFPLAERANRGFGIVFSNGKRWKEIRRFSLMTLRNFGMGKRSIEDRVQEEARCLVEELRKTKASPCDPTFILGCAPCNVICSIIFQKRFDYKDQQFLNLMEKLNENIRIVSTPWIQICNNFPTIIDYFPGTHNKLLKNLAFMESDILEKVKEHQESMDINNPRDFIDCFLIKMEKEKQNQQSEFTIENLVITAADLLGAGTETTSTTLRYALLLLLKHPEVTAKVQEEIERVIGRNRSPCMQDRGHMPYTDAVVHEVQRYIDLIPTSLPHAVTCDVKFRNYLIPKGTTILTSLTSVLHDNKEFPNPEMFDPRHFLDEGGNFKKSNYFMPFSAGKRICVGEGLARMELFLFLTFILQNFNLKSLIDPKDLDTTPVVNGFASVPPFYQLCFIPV
Chain of UniProt P08684 (whole entry, looked up): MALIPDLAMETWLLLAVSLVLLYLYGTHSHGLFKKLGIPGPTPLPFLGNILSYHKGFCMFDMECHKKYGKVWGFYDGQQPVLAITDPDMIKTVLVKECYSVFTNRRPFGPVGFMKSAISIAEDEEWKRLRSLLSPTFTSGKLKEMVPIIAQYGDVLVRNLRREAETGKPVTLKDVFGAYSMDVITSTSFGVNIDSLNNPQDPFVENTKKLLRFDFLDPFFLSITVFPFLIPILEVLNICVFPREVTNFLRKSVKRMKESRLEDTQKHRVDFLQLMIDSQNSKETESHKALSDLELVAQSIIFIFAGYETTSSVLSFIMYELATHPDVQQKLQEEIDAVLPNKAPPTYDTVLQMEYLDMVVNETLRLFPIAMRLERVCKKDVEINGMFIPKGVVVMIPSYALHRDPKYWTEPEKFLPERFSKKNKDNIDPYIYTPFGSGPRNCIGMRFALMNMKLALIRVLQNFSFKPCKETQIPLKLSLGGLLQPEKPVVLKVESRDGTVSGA
Chain of UniProt P05177 (whole entry, looked up): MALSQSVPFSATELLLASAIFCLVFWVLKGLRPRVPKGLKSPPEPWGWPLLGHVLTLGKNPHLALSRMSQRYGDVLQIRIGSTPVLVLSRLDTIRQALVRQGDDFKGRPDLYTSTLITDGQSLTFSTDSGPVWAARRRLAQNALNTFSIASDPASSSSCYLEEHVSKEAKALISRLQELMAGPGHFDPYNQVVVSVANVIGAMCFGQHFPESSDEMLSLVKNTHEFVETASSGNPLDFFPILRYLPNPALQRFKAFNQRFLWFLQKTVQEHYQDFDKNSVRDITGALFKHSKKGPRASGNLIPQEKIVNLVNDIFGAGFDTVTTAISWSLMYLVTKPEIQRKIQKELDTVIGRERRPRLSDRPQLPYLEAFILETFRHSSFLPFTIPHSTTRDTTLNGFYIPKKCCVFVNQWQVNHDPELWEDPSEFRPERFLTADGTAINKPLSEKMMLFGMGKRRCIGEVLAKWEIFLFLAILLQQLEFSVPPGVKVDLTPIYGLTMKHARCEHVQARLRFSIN

N[C@@H](CC(=O)O)C(=O)O — uptake half-time (Bacillus subtilis; NCIB3610, MOPS medium; 1 mM, 1 mM equimolar amino acid mixture): 17.4 h
Cc1noc(C)c1Cn1cc(N2C(=O)CN(Cc3cccc(O)c3)C2=O)cn1 — aberrant cells with gaps (human blood lymphocytes; 1200 µg/mL, 3 h, with 5% S9): 3.9%
CC[C@H](C)[C@H](N)C(=O)O — uptake half-time (Bacillus subtilis; NCIB3610, MOPS medium; 1 mM, 1 mM equimolar amino acid mixture): > 25 h
CC(=O)Oc1ccccc1C(=O)O — QTc interval (male Hartley guinea pig, anaesthetized; intravenous, 3 mg/kg, baseline before infusion): 358 ± 0.5 ms
Cn1c(=O)c2c(ncn2C)n(C)c1=O — AUC(0-t) (Cytochrome P450 1A2 (CYP1A2, Homo sapiens, UniProt P05177); human, plasma; oral, 200 mg, day 1, alone, geometric mean): 30600 ng·h/mL
N[C@@H](CO)C(=O)O — uptake half-time (Bacillus subtilis; NCIB3610, MOPS medium; 1 mM, 1 mM equimolar amino acid mixture): 18.2 h
N#C[C@@]1(c2ccc3c(N)ncnn23)O[C@H](COC(=O)C2CCCCC2)[C@@H](O)[C@H]1O — selectivity index (human respiratory syncytial virus; viral replication, viral protein ELISA; HEp-2, A2; 5 days; baseline: CC50 over EC50): 86
NCCC(O)c1cccc(OC(=O)C2CCCCC2)c1.O=CO (centres unmarked) — compound remaining (porcine liver esterase; 99 µM, 15 min; baseline: time 0 min): 44.4%
COc1cccc2c1C(=O)c1c(O)c3c(c(O)c1C2=O)C[C@@](O)(C(=O)CO)C[C@@H]3O[C@H]1C[C@H](N)[C@H](O)[C@H](C)O1 — viability (BNL mouse liver cells; SRB; 10 µM, 10% fetal bovine serum): 62.8%
Cc1cc(Nc2ccc(S(F)(F)(F)(F)F)cc2)n2nc(C(C)(F)F)nc2n1 — patients with administration site conditions (Plasmodium falciparum; P. falciparum malaria patients; oral, 250 mg): 36.4%
COc1ccc(-c2nc(NS(=O)(=O)c3ccccc3)nc(N)c2-c2nc3ccccc3s2)cc1 — maximum non-toxic concentration (BGM; cytotoxicity; 72 h): 100 µg/mL
COc1cc(N)c(Cl)cc1C(=O)NC1CCN(CCCOc2ccc(F)cc2)CC1OC (centres unmarked) — QTc interval (male Hartley guinea pig, anaesthetized; intravenous, 0.1 mg/kg, baseline before infusion): 302 ± 0.3 ms
C[C@]12CC[C@@H]3c4ccc(O)cc4C[C@@H](CCCCCCCCC[S+]([O-])CCCC(F)(F)C(F)(F)F)[C@H]3[C@@H]1CC[C@@H]2O (some centres unmarked) — viability (LCC2 tamoxifen-resistant; CCK-8; 200 nM; baseline: untreated): 83.7% and 89.8% and 93.6%
COc1ccc2[nH]c([S+]([O-])Cc3ncc(C)c(OC)c3C)nc2c1 (centres unmarked) — Cmax increase (CYP2C19; human, plasma; oral, 20 mg, together with: single dose encorafenib and binimetinib; baseline: Day -7 probe alone): ~32%
C[C@@H]1CN(c2c(F)c(N)c3c(=O)c(C(=O)O)cn(C4CC4)c3c2F)C[C@H](C)N1 — QTc interval (male Hartley guinea pig, anaesthetized; intravenous, 30 mg/kg, baseline before infusion): 317 ± 0.9 ms
COc1ccc2nc([S+]([O-])Cc3ncc(CO)c(OC)c3C)[nH]c2c1 (centres unmarked) — AUC(0-t) (CYP2C19; substrate; human, plasma; oral, 20 mg, day 1, cocktail with binimetinib and encorafenib): 302 ng·h/mL
CC[C@H]1[C@@H](O)[C@@H]2[C@H](CC[C@]3(C)[C@@H]([C@H](C)CCNC(=O)NS(=O)(=O)c4ccc(C(C)(C)C)cc4)CC[C@@H]23)[C@@]2(C)CC[C@@H](O)C[C@@H]12 — Vd/F mean (Cytochrome P450 3A4 (CYP3A4, Homo sapiens, UniProt P08684); substrate; human, plasma; 10 mg, alone, study day 1): 452 L

A few entries again:
COc1ccc(-c2nc(NS(=O)(=O)c3ccccc3)nc(N)c2-c2nc3ccccc3s2)cc1 — maximum non-toxic concentration (BGM; cytotoxicity; 72 h): 100 µg/mL
COc1cc(N)c(Cl)cc1C(=O)NC1CCN(CCCOc2ccc(F)cc2)CC1OC (centres unmarked) — QTc interval (male Hartley guinea pig, anaesthetized; intravenous, 0.1 mg/kg, baseline before infusion): 302 ± 0.3 ms
